Published values collected from several papers.
Numbers after ± are the reported error.
GAP50: Glideosome-associated protein 50 (GAP50, Plasmodium falciparum, UniProt Q8I2X3)
Sequence of UniProt Q8I2X3 (whole entry, looked up): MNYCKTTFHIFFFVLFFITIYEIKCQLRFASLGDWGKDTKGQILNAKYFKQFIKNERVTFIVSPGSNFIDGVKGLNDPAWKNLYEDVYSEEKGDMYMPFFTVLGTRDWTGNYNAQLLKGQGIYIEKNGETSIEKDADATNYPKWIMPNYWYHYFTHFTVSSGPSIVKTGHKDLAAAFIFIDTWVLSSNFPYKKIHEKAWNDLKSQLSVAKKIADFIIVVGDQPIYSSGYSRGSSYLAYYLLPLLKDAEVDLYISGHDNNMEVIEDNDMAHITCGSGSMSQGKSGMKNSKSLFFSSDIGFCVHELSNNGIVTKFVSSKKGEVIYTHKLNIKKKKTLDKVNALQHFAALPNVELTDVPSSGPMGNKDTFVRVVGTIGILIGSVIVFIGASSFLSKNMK
USP51 ZnF-UBD domain: Ubiquitin carboxyl-terminal hydrolase 51, ZnF-UBD domain (USP51, Homo sapiens, UniProt Q70EK9)
Sequence of UniProt Q70EK9 (whole entry, looked up): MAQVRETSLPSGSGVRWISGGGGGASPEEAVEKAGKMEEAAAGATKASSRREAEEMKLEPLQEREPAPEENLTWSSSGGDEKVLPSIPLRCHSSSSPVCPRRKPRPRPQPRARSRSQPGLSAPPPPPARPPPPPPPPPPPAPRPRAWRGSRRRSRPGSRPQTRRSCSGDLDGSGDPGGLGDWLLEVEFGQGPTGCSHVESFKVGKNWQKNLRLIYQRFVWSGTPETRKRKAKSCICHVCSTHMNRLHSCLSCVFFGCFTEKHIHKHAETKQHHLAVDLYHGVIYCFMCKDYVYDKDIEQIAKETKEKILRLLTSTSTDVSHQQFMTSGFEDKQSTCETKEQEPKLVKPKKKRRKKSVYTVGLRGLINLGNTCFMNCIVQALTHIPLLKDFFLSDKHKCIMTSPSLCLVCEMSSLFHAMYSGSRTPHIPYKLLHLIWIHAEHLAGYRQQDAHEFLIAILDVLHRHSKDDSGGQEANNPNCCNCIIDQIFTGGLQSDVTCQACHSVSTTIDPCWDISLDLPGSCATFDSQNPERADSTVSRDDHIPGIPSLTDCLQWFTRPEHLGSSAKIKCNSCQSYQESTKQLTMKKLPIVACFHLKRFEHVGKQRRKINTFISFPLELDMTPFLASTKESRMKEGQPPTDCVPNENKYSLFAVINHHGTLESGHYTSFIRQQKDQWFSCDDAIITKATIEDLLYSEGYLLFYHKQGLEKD
CDK9: Cyclin-dependent kinase 9 (CDK9, Homo sapiens, UniProt P50750)
Sequence of UniProt P50750 (whole entry, looked up): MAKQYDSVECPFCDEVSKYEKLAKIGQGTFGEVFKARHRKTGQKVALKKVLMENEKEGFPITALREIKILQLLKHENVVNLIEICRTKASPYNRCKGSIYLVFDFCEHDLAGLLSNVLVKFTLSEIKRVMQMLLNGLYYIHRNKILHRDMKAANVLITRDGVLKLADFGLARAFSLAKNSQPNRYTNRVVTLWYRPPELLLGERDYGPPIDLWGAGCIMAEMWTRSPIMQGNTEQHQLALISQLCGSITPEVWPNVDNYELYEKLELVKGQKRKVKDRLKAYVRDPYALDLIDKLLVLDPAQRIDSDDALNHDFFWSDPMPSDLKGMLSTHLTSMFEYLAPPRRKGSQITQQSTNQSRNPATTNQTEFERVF
Kir3.1/Kir3.2: Kir3.1/Kir3.2 (Homo sapiens, UniProt P48051+P48549)
Sequence of UniProt P48549 (whole entry, looked up): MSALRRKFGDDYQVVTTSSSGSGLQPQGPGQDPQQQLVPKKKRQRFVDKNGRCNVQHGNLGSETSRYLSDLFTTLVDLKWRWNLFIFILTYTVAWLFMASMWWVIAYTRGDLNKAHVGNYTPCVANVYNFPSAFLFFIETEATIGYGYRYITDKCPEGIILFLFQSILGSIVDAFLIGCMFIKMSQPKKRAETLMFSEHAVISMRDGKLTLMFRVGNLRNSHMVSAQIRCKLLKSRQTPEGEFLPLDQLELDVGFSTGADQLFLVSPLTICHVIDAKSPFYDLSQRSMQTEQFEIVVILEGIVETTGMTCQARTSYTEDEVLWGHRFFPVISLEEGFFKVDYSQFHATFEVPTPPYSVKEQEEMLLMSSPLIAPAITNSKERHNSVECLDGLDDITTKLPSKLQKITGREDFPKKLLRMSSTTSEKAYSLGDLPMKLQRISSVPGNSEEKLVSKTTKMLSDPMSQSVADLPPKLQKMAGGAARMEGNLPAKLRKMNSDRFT
Sequence of UniProt P48051 (whole entry, looked up): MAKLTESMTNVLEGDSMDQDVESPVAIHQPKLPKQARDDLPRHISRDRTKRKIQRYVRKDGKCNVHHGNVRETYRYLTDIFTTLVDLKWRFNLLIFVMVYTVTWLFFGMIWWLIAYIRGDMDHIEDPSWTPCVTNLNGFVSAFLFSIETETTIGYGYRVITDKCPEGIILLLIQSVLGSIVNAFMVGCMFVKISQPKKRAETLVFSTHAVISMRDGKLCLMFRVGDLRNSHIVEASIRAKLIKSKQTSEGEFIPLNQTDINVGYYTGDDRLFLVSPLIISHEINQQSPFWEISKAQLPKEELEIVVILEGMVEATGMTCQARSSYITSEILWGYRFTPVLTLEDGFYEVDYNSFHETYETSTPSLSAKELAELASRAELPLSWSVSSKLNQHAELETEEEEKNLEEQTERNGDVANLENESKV
Sequence of UniProt P05412 (whole entry, looked up): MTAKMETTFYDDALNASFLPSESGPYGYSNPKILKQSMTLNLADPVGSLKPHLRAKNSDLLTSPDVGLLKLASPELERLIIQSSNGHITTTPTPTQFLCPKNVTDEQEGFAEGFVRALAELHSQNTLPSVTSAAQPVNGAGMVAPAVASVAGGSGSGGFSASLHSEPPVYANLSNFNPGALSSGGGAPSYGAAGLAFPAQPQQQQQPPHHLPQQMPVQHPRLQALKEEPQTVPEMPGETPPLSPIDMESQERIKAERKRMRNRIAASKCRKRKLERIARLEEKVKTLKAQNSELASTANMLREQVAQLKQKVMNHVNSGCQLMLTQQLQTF
Sequence of UniProt P15407 (whole entry, looked up): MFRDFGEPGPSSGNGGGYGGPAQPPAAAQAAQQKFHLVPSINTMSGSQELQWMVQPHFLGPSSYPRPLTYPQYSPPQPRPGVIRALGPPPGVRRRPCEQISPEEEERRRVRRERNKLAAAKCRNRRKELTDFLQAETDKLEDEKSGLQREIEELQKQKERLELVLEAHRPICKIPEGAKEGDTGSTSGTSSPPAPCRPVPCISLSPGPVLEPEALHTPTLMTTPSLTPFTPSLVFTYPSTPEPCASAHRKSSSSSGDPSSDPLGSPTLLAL
Sequence of UniProt P14618 (whole entry, looked up): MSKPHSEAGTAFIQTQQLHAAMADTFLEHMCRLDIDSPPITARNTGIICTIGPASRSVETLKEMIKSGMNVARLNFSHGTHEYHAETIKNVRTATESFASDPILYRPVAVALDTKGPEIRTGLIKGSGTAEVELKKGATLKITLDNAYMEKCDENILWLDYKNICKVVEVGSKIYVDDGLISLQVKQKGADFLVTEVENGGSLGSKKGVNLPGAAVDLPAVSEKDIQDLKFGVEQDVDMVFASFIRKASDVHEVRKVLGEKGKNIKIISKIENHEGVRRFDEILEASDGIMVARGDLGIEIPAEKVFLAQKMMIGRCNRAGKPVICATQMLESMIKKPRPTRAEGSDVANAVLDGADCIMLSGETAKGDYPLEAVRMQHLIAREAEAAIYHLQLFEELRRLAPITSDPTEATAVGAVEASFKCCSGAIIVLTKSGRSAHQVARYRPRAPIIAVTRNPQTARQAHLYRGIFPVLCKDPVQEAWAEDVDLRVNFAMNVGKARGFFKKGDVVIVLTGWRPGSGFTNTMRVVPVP
Sequence of UniProt P10636 (whole entry, looked up): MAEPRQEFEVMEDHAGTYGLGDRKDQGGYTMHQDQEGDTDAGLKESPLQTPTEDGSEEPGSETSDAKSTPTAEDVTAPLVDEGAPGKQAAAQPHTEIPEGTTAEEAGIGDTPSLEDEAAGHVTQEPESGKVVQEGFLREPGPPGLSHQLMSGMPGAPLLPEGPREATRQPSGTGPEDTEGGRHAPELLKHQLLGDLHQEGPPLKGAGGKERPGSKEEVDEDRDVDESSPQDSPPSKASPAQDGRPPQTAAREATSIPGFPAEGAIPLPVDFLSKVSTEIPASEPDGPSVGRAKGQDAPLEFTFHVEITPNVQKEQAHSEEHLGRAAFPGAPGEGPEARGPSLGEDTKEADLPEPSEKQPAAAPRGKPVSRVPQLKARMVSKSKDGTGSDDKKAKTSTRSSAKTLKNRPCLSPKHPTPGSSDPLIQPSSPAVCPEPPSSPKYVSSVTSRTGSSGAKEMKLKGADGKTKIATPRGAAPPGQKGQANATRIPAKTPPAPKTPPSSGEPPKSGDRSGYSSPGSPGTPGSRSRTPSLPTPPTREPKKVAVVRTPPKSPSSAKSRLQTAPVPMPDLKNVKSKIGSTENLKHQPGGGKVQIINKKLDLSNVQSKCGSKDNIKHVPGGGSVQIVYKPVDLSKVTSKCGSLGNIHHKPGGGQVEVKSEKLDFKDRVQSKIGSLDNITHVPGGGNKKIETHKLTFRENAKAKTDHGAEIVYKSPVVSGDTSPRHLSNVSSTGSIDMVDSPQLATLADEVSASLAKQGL
Sequence of UniProt P34995 (whole entry, unmodified, looked up): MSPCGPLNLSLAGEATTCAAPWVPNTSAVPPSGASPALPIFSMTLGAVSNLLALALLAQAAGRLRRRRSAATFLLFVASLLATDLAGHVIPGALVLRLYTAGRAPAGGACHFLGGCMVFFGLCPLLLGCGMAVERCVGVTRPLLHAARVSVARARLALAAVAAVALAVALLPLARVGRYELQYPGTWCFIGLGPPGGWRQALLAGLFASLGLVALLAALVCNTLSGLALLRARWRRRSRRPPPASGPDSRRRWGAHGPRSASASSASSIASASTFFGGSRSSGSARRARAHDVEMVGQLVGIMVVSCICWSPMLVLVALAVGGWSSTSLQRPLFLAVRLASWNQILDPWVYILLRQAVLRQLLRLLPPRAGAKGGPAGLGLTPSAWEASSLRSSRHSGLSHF

| SMILES | target | test | system | conditions | endpoint | value |
| --- | --- | --- | --- | --- | --- | --- |
| CCCCC[C@H](O)/C=C/[C@H]1[C@H](O)CC(=O)[C@@H]1C/C=C\CCCC(=O)O | Prostaglandin E2 receptor EP1 subtype (PTGER1, Homo sapiens, UniProt P34995, F334L/G92T) | IP1 accumulation, agonist | AD293 | – | EC50 | 0.00815 µM |
| Cc1c[nH]c(CCNC(=O)c2cc(-c3ccc(Cl)cc3)cs2)n1 | GAP50 | binding, surface plasmon resonance | – | 1:1 binding model | Kd | 58.4 µM |
| Cc1ccc(C(=O)O)cc1S(=O)(=O)Nc1cccc(C(=O)CCC(=O)O)c1 | USP51 ZnF-UBD domain | – | – | – | Kd | > 1000 µM |
| C=C(C)[C@H]1CC=C(C)CC1 | uncharacterized protein (Bradysia odoriphaga, UniProt A0A2S0X9G4) | binding, competitive fluorescence displacement | – | – | Ki | > 50 µM |
| CC(C)(C)c1cnc(CSc2cnc(NC(=O)C3CCN(C(=O)CCCCCCCCCN4Cc5cc6c(cc5C4)C(=O)N(C4CCC(=O)NC4=O)C6=O)CC3)s2)o1 (stereo not drawn) | CDK9 | degrader, Western blot | TC-71 | – | DC50 | 0.0102 ± 0.0045 µM |
| O=C(COc1cc(Cl)ccc1Cl)Nc1cc(C2CC2)nn1C1CCC(F)(F)CC1 | Kir3.1/Kir3.2 | activator, thallium flux | HEK293 | – | EC50 | 0.194 µM |
| O=C(CCc1cc(C(=O)c2ccc(OC3CCCC3)cc2O)ccc1OCc1ccc2c(O)noc2c1)NCCOCCOCCOCCOCCOCCOCCNc1cccc2c1C(=O)N(C1CCC(=O)NC1=O)C2=O (stereo not drawn) | JUN/FOSL1 (Homo sapiens, UniProt P05412+P15407) | degrader, western blot | UMSCC1 cells | – | DC50 | 4.9 µM |
| CCc1cc(NC(=O)COc2cc(Cl)ccc2Cl)n(C2CCC(F)(F)CC2)n1 | Kir3.1/Kir3.2 | activator, thallium flux | HEK293 | – | EC50 | 0.045 µM |
| C/C1=C\CC/C(C)=C/CC(C)(C)/C=C/C1 | uncharacterized protein (Bradysia odoriphaga, UniProt A0A2S0X9G4) | binding, competitive fluorescence displacement | – | – | Ki | > 50 µM |
| O=C(O)Cc1nc2ccccc2[nH]1 | USP51 ZnF-UBD domain | – | – | – | Kd | > 1000 µM |
| CN1CCN(c2ccc(Nc3ncc4cc(C#N)c(=O)n(C5CCCC5)c4n3)cc2)CC1 | Mitogen-activated protein kinase kinase kinase kinase 2 (MAP4K2, Homo sapiens, UniProt Q12851) | – | – | – | IC50 | 0.688 µM |
| CC[C@@H]1[C@H](F)C(=O)N[C@@H]1COc1nccc2cc(C(N)=O)c(OC)cc12 | Calcium/calmodulin-dependent protein kinase type 1D (CAMK1D, Homo sapiens, UniProt Q8IU85) | ATP-site probe binding, ActivX profiling | THP-1 cell lysate | Lys2 site | IC50 | > 5 µM |
| COc1ccc2nc(/C=C/c3ccc(N(C)C)cc3)sc2c1 | Microtubule-associated protein tau, paired helical filaments (MAPT, Homo sapiens, UniProt P10636) | binding | authentic PHF 1 µM | together with: thioflavin S | AC50 | > 10 µM |
| CC(C)(C)c1cnc(CSc2cnc(NC(=O)C3CCN(C(=O)CCCCCCCN4Cc5cc6c(cc5C4)C(=O)N(C4CCC(=O)NC4=O)C6=O)CC3)s2)o1 (stereo not drawn) | CDK9 | degrader, Western blot | RH5 rhabdomyosarcoma | 6 h | DC50 | < 0.01 µM |
| Oc1cccc(C(Nc2nccs2)c2ccc3cccnc3c2O)c1 (stereo not drawn) | GAP50 | binding, surface plasmon resonance | – | – | Kd | 5.78 µM |
| O=C(COP(=O)(O)O)[C@@H](O)[C@H](O)[C@H](O)COP(=O)(O)O | Pyruvate kinase PKM (PKM, Homo sapiens, UniProt P14618) | enzyme activity, activator | A549 cell lysate | together with: 0.2 mM PEP, 2 mM ADP | AC50 | 0.0487 ± 0.003 µM |
| O=C(O)CCC(=O)N1CCc2ccccc21 | USP51 ZnF-UBD domain | – | – | – | Kd | > 1000 µM |
| O=C(COc1ccc(Cl)cc1Cl)Nc1cc(C2CCC2)nn1CC(F)(F)F | Kir3.1/Kir3.2 | activator, thallium flux | HEK293 | – | EC50 | > 10 µM |
| O=C(O)CCn1ccccc1=O | USP51 ZnF-UBD domain | – | – | – | Kd | > 1000 µM |
| CC[N+]1(C/C2=C/CCCCCC2)CCC(NC(=O)C2c3cc(Cl)ccc3Oc3ccc(Cl)cc32)CC1 (stereo not drawn) | GAP50 | binding, surface plasmon resonance | – | 1:1 binding model | Kd | 12 µM |
| CC(=O)C(C)O (stereo not drawn) | uncharacterized protein (Drosophila suzukii, UniProt A0AB39ZCT4) | binding, bis-ANS competition fluorescence | – | pH 7.4, together with: bis-ANS | IC50 | > 50 µM |

For quick reference, copied from above:
| SMILES | target | test | system | conditions | endpoint | value |
| --- | --- | --- | --- | --- | --- | --- |
| O=C(COc1cc(Cl)ccc1Cl)Nc1cc(C2CC2)nn1C1CCC(F)(F)CC1 | Kir3.1/Kir3.2 | activator, thallium flux | HEK293 | – | EC50 | 0.194 µM |
| CC(=O)C(C)O (stereo not drawn) | uncharacterized protein (Drosophila suzukii, UniProt A0AB39ZCT4) | binding, bis-ANS competition fluorescence | – | pH 7.4, together with: bis-ANS | IC50 | > 50 µM |
| C=C(C)[C@H]1CC=C(C)CC1 | uncharacterized protein (Bradysia odoriphaga, UniProt A0A2S0X9G4) | binding, competitive fluorescence displacement | – | – | Ki | > 50 µM |
| Cc1ccc(C(=O)O)cc1S(=O)(=O)Nc1cccc(C(=O)CCC(=O)O)c1 | USP51 ZnF-UBD domain | – | – | – | Kd | > 1000 µM |
